# Measurements gathered from unrelated publications.
# Numbered parts are unrelated; each lists some results of a single study. Positions count from the first letter of the parent shown.

# Set 1
# Target: Interferon regulatory factor 5, full length, phosphomimetic (IRF5, Homo sapiens, UniProt Q13568-2, residues 1-514, S451D/S453D/S456D/S462D)
# Technique: protein-binding microarray
# Form: double-stranded DNA, one strand shown
# Sample: in vitro
# Concentration: 940 nM top
# Notes: 60-bp whole probe
# Added: salmon DNA 0.4 mg/ml
# Reference: random background probes
# Reading: higher = stronger binding
# Constant ends, left off below: GCCTAGCAC … GTCTTGATTCGCTTGACGCTGCTG
Oligonucleotide,fitted relative affinity [z-score]
TTAGGAATCGGTCTCGGTTAGTGCTAG,3.08
CAGCCTCTGAGCAGCTCGGCGTGCTAG,-0.693
TTAGGTACCGGTATCGGTTAGTGCTAG,5.27
TCAGCTTTATGTGTAGGACTGTGCTAG,0.115
TCATGTTGCAAATATTGCACTGTGCTA,-0.359
GTAGATCTCAGTTTCGATTAGTGCTAG,7.31
TCATTTTTTTTCCTAATACTGTGCTAG,1.59
TCAAGAATGCCTTTAATACTGTGCTAG,-0.116
TTAGATCTCAGACTGGAGTAGTGCTAG,-0.386
TCAGGTATTTTTCTAAAACTGTGCTAG,0.0431
TTGTGTTTGGGCATTTTTCTAGTGCTA,-0.454
GACGATTTCGGGTATCGACACGTGCTA,1.64
GACGATTTCGGTTTCGAGACGTGCTAG,5.12
TCAATTTTGGTTTTCTCACTGTGCTAG,1.5
TTAGAGTTCGGGTATCGATTAGTGCTA,2.65

# Set 2
# Target: Histone acetyltransferase KAT6A, both winged helices, GST fusion (KAT6A, Homo sapiens, UniProt Q92794, residues 1-181)
# Technique: protein binding microarray
# Form: double-stranded DNA, one strand shown
# Sample: in vitro
# Concentration: not given
# Notes: 8-mer, flanks averaged, mean of 2 arrays, mostly near background
# Reference: not given
# Reading: higher = stronger binding
# Target sequence (chain): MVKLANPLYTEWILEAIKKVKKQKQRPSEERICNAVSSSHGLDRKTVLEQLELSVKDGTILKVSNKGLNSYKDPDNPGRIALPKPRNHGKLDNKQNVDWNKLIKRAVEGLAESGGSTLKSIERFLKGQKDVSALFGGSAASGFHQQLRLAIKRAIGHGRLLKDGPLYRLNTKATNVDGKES
Oligonucleotide,E-score
CCAAAGTC,-0.144
AGTCAGTA,0.0251
AAGCCTAC,0.00185
GACTGGCA,-0.113
GTACAGTA,-0.143
ACACAGCC,-0.034
AAGCAGCT,-0.0764
GATATAAC,0.0312
TCGTTTCA,-0.0177
AATGACTC,-0.145
CCTATCAG,-0.175
CTTAACGC,0.00581
ATCGTTCA,-0.0557

# Set 3
# Target: CCND2, cyclin fold, Cln2 fusion (human)
# Technique: yeast growth competition, sequencing
# Sample: yeast
# Notes: weak parent motif
# Reference: not given
# Reading: higher = stronger binding
# Parent: PKMYT1 docking peptide (human); SFEPRNLLSLFED
Substitution,normalised enrichment score
F11E,0.00574
S1K,-0.116
N6W,0.339
F11Y,-0.0187
S9L,0.216
E3Y,0.547
P4T,0.167
L10E,0.0916
S1V,0.37
S9C,-0.00505
L7W,0.144

# Other studies, line by line
Molecule,target,assay,test system,conditions,how to read,quantity,value
"PhoQ, residues 284 288 289 292 302 303 STVVAA","PhoP, residues 12 14 15 18 19 VQALL (Escherichia coli, UniProt P23836)","Sort-seq, item: YFP reporter",E. coli,"PhoQ-PhoP variant library, added: 10 µM Mg2+","reference: high Mg2+ state, higher = stronger signaling",fold induction,22.6
